Published values from different studies.
Lines come from different studies, so protocols differ.
Read-out: metabolic stability
Species: human

| Compound | medium | concentration | pH | half-life |
| --- | --- | --- | --- | --- |
| [2H]C(Cc1c[nH]c2ccccc12)(Nc1ccccc1)C(=O)O (stereo not shown) | liver microsomes | 1.5 µM | pH 7.4 | 5.91 h |
| O=C1N[C@H](CO)Cc2cccc(c2)CCCOc2cccc1c2 | hepatocytes |  |  | 0.167 h |
| O=C(O)c1ccc(/C=C2\SC(=S)N(Cc3cccc(C(F)(F)F)c3)C2=O)cc1 | liver microsomes | 1 µM |  | > 2.42 h |
| CC(C)C[C@@H](CC(=O)N[C@@H](CO)C(=O)N1CCC[C@H]1C(=O)N[C@H](C(N)=O)[C@@H](C)O)NC(=O)[C@H](Cc1cccc2ccccc12)NC(=O)[C@H](CNC(=O)c1ccc2cc(F)ccc2c1)NC(=O)[C@H](CO)NC(=O)C1CCNCC1 | liver S9 | 3 µM | pH 7.4 | 1.48 h |
| O=C(NC1CCCC1)N1CCC=C(c2cc3c(Nc4cc5ncsc5cc4F)ncnc3s2)C1 | liver microsomes |  |  | > 2 h |
| O=C(CCN1C(=O)CSc2ccccc21)Nc1nnc(-c2ccccn2)[nH]1 | liver microsomes |  |  | 1.78 h |
| CO[C@@H](C(N)=O)[C@H](NC(=O)c1ccc(NC(=O)c2ccc([N+](=O)[O-])cc2)cc1)C(=O)Nc1ccc(C(=O)Nc2ccc(C(=O)Nc3ccc(C(=O)O)cc3)c(O)c2OC(C)C)cc1 | hepatocytes |  |  | > 6.67 h |
| CCCNC(=O)NC1CC=C(c2cc3c(Nc4cc5ncsc5cc4F)ncnc3s2)CC1 (racemic) | liver microsomes |  |  | > 2 h |
| COc1cc(F)cc(-c2nc3ccc(C(=O)NCCCN(C)C)cc3n2C2CCC2)c1 | liver microsomes |  |  | 3.23 h |
| Cc1nc(-c2ccc(NC(=O)c3cccs3)cc2Cl)no1 | liver microsomes |  |  | 0.64 h |
| COc1cc(-c2nc3ccc(C(=O)NCCCN4CCN(c5ccccn5)CC4)cc3n2C2CCC2)cc(OC)c1OC | liver microsomes |  |  | 0.163 h |
| C=CCNC(=O)NC1CC=C(c2cc3c(Nc4cc5ncsc5cc4F)ncnc3s2)CC1 (racemic) | liver microsomes |  |  | > 2 h |
| CNC(=O)C1CCN(c2cc(C)c(F)cc2NC(=O)c2ccc(-c3cc(O)ccc3C)c(C)c2)CC1 | liver microsomes | 2 µM |  | > 2 h |
| CC(C)NC(=O)NC1CC=C(c2cc3c(Nc4cc5ncsc5cc4F)ncnc3s2)CC1 (racemic) | liver microsomes |  |  | > 2 h |
| CN1C(=O)C2(Nc3ccccc3C(=O)N2Cc2ccccc2)c2cc(Br)ccc21 (stereo not shown) | liver microsomes |  |  | < 0.0383 h |
| CC(C)NC(=O)N1CCC=C(c2cc3c(Nc4cc5ncsc5cc4F)ncnc3s2)C1 | liver microsomes |  |  | > 2 h |
| CC12CC3CC(C1)CC(NC(=O)NC1CCC(Oc4ccc(C(=O)O)cc4)CC1)(C3)C2 (stereo not shown) | liver microsomes |  |  | 0.9 h |
| CC(C)NC(=O)N1CC=C(c2cc3c(Nc4cc5ncsc5cc4F)ncnc3s2)CC1 | liver microsomes |  |  | > 2 h |
| Cc1nc(N[C@@H](C)c2ccc(-c3nc(C4CC4)no3)cc2)c2cc(C)oc2n1 | liver microsomes |  |  | 0.767 h |

Some of these lines once more:
| Compound | medium | concentration | pH | half-life |
| --- | --- | --- | --- | --- |
| CNC(=O)C1CCN(c2cc(C)c(F)cc2NC(=O)c2ccc(-c3cc(O)ccc3C)c(C)c2)CC1 | liver microsomes | 2 µM |  | > 2 h |
| CC12CC3CC(C1)CC(NC(=O)NC1CCC(Oc4ccc(C(=O)O)cc4)CC1)(C3)C2 (stereo not shown) | liver microsomes |  |  | 0.9 h |
| CC(C)C[C@@H](CC(=O)N[C@@H](CO)C(=O)N1CCC[C@H]1C(=O)N[C@H](C(N)=O)[C@@H](C)O)NC(=O)[C@H](Cc1cccc2ccccc12)NC(=O)[C@H](CNC(=O)c1ccc2cc(F)ccc2c1)NC(=O)[C@H](CO)NC(=O)C1CCNCC1 | liver S9 | 3 µM | pH 7.4 | 1.48 h |
